{"data": "Published values collected from several papers", "note": "A part holds a random share of what one study measured."}
{"data": "Block 1", "target": "Histone acetyltransferase KAT6A, winged helix 1, GST fusion (KAT6A, Homo sapiens, UniProt Q92794, residues 1-85)", "method": "protein binding microarray", "molecule type": "double-stranded DNA, one strand shown", "matrix": "in vitro", "concentration": "not given", "notes": "8-mer, flanks averaged, mean of 2 arrays, mostly near background", "baseline": "not given", "direction": "higher = stronger binding", "Construct (chain)": "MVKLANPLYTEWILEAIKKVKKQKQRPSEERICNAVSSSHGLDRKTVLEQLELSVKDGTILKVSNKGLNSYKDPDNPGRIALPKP"}
{"Oligonucleotide": "AGGGACGC", "E-score": 0.0341}
{"Oligonucleotide": "CACCAAAA", "E-score": -0.0214}
{"Oligonucleotide": "GCCGCAAA", "E-score": 0.256}
{"Oligonucleotide": "CATGGTAA", "E-score": -0.108}
{"Oligonucleotide": "AGGCAGCG", "E-score": 0.189}
{"Oligonucleotide": "AAGATCTG", "E-score": -0.104}
{"Oligonucleotide": "ACACTCAC", "E-score": -0.104}
{"Oligonucleotide": "GACTTTTA", "E-score": -0.112}
{"Oligonucleotide": "ATCGGGTG", "E-score": 0.177}
{"Oligonucleotide": "ACCGTCGT", "E-score": 0.067}
{"Oligonucleotide": "GTCCGAAA", "E-score": -0.00511}
{"Oligonucleotide": "ATCTGCGA", "E-score": -0.0712}
{"Oligonucleotide": "CAACAAAG", "E-score": -0.184}
{"Oligonucleotide": "AATAGGGT", "E-score": -0.113}
{"Oligonucleotide": "ACATTAAT", "E-score": -0.0903}
{"Oligonucleotide": "ACAAGCAA", "E-score": -0.12}
{"data": "Block 2", "target": "RNA binding protein fox-1 homolog 2, RRM domain, GST-SBP tag (RBFOX2, Homo sapiens, UniProt O43251-10, residues 100-194)", "method": "RNA Bind-n-Seq", "molecule type": "RNA", "matrix": "in vitro", "concentration": "365 nM", "notes": "natural RNA segment, single round, ends assumed", "baseline": "no-protein control", "direction": "higher = stronger binding", "all sequences stand within": "GGGAGUUCUACAGUCCGACGAUC … UGGAAUUCUCGGGUGCCAA", "Target sequence (chain)": "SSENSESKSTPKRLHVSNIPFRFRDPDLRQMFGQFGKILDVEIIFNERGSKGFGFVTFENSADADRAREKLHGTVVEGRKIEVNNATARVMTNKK"}
{"Oligonucleotide": "GGCCUGCAGGAGAGGCUGAGACCAGCCCACCCAGCCAGUGGUCGAGCACUGCCCCGCCGCCAAAGUCUGCAGAAUGUGAGAUGAGGUUCUCAAGGUCACAGGCCCCAGUC", "RBNS enrichment (R)": 1.56}
{"Oligonucleotide": "UAGGUUCCUGCACUUUUUGGUAACUUUAUGUCUAGCAAAUAUUUUAUGCCAAGAAAAGCAUACUAUAAAGCAAAUAUCUAUUAUUCUCCUAAACGAAUGCCUAGCAUAGA", "RBNS enrichment (R)": 1.23}
{"Oligonucleotide": "CAAAACCCUGAAGCCAUUGGAGAGCUGUCUUCCUGUGUACCUCUAGAAUCCCAGCAGCAGAGAACCAUCAAGGCGGGAGGGCCUGCAGUGAUUCAGCAGGCCCUUCCCAU", "RBNS enrichment (R)": 0.384}
{"Oligonucleotide": "AGAACUGUGGUCUCUGUGGAGAACCUAGUACAGAGCCUGAGCAAGGCAAUGGACCACCUCCUUUUCCUCAAACUGAUGGAUCACCACUGUUAAUCUAUACCAGGUGUGAA", "RBNS enrichment (R)": 0.302}
{"Oligonucleotide": "AGAGGGAAGCUCUAACAUUGCCUCUGUAAUAUAAUGCUAGUGACUGUAUGUAGUACAUGUUAUAUGUGUAUAAUCUUUUUACUGAUAGACUGGAAACAUGUCAUCAUUUU", "RBNS enrichment (R)": 0.388}
{"Oligonucleotide": "UUCUGAAUCAGUGGGGAAAUAUCAAUAUUUGAUCAAAUUAACACUACCUCCUUCCCAGUGUUGGUGUUCACUCACUAUAUGUCUUUAAGAAAAUUAAAACUAUGGAAAAU", "RBNS enrichment (R)": 0.488}
{"Oligonucleotide": "ACUAAGUAAACCAGGCUAGUUUCAAACACAGAUCUGCCUGCCUCUGCCUGCCAAUGCUCCAACUGAAGAGGCGACCUCUCACCCUGUGGCUCCGCCGUUAAGAGUGACCA", "RBNS enrichment (R)": 0.485}
{"Oligonucleotide": "UACUAGACCUCAACCACAGUCUUCUUUUUCCCCUUCCACCUCUCUUUGCCUGUAGGAUGUACUGUAUGUAGUCAUGCACUUUGUAUUAAUAUAUUAGAAAUCUACAGAUC", "RBNS enrichment (R)": 2.1}
{"Oligonucleotide": "UUCUAAUGACAACUUCUUUAAUCCUUCCGGGUCAUAUAUUAUAUUUCCAUAGUAUCACAUACUAUUAUUUAGUUGUUUACAAGACUCCAAUUUGAAUUCAGGAUUACAGU", "RBNS enrichment (R)": 0.488}
{"Oligonucleotide": "CUAAGAGCACAAAUUUAGUUUGGGUGUUCCUCAUCACAUGUAUAUAUGGACUAUCCAUCGAACUUAACCUGUGUGGCUUCCAGCCCUCCCUUUACCAAAAGGGUCAAUGG", "RBNS enrichment (R)": 0.249}
{"Oligonucleotide": "UGGCCAGCCUUCAGCUCGCUCCUCCACUUCUGAGGGGCCUAGGAGGCCUCCCACAGGUGUCCCGGCAAGAGAAGACACGGUGGUGGAAGAAGAGGCCUGGUAAUGGCCCC", "RBNS enrichment (R)": 0.445}
{"Oligonucleotide": "AAACUAUUGUAGGCUCCCUCGCCAAACCAUGGCUUUCCCUCAGCAUCAAGACCUGUGCCAAGGAGAAGGGAGAGGCCGGAGGCUGCUUUGGAUGCCCAGACACACAUCUU", "RBNS enrichment (R)": 1.32}
{"data": "Block 3", "target": "Ras GTPase-activating protein-binding protein 1, full length (G3BP1, Homo sapiens, UniProt Q13283)", "method": "RNA Bind-n-Seq", "molecule type": "RNA", "matrix": "in vitro", "concentration": "200 nM", "notes": "whole 134-nt RNA, ends assumed", "added": "150 mM KCl", "baseline": "input library", "direction": "higher = stronger binding", "all sequences stand within": "GGGAGUUCUACAGUCCGACGAUC … UGGAAUUCUCGGGUGUCAAGG", "chain of UniProt Q13283 (whole entry, looked up)": "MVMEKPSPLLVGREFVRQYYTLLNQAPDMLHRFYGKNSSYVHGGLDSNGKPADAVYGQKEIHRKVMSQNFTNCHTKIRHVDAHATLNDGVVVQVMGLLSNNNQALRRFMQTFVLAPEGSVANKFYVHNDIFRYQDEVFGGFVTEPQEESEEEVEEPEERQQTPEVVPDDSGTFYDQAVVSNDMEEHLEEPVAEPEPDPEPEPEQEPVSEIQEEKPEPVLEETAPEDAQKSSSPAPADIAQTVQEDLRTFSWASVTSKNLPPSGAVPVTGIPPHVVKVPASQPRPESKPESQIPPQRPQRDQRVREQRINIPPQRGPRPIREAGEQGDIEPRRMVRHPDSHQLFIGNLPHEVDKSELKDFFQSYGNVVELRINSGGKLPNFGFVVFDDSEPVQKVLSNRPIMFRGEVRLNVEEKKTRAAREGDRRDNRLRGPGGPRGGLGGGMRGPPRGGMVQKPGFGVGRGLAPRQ"}
{"Oligonucleotide": "UGGGAGGUGGAUUUUGUUUAUUUUUUUAGCUCAUUUCCAGGGGUGGGAAUAUUUUUUUAAUAUGUGUCAUGAAUAAAGUUGUUUUUGAAA", "log2 enrichment": 0.157}
{"Oligonucleotide": "AGUCCUGUGCUACACAUCGUAUGUACCGAAUCGGGAAAGGGAAAGGGAAAAAAAGGGAAAGUAUUAUGUUACGCCGUUCGGAUCUGCACU", "log2 enrichment": -0.243}
{"Oligonucleotide": "AGUCCUGUGCUACACAUCGUAUGUACCGAAUCGGGAAAAAGGGAAAAAGGAAAAAGGGAAAGUAUUAUGUUACGCCGUUCGGAUCUGCAC", "log2 enrichment": -0.902}
{"Oligonucleotide": "CCUCAAGUCCUGUGCUACACAUCGUAUGUACCGAAUCGGCCGGCCGGCCGGGAAAGUAUUAUGUUACGCCGUUCGGAUCUGCACUUCCAG", "log2 enrichment": 0.451}
{"Oligonucleotide": "ACCGUGCAGGUGGGCAUCUUUGGGAAGUGGGGCAAGGGGGGGAUAGGGAGGGGGGUAACACUUUGGGAACAGGUGGUCCCAGGUCGUUUC", "log2 enrichment": 1.23}
{"Oligonucleotide": "UGGCCCUGGUGGCAUGCGGGGAGGAAGAGGUGGCCUCAUGGAUCGUGGUGGUGCCGGUGGAAUGUUCAGAGGUGGCCGUGGUGGAGACAG", "log2 enrichment": 0.241}
{"Oligonucleotide": "CUGUGCUACACAUCGUAUGUACCGAAUCGGGUUUUUUUGGGAAAAAAAGGGAAAAAAAGGGAAAGUAUUAUGUUACGCCGUUCGGAUCUG", "log2 enrichment": -1.38}
{"Oligonucleotide": "UGGCCUGCACAUUCAGCUGCAUGAUGAAGUUCACUGUCAAGGACUGUGAUCCCACCACUGGGGAGACUGAUGACGAAGGCUAUGAGGAUG", "log2 enrichment": 0.516}
{"Oligonucleotide": "CACAGACAACACGCACCCACACAGACACAGAGGGAAGGGGUUCGGAUGGGGACAGGGUGCACAGCAGGGCGGGGUAGGACCCCAGCCCCU", "log2 enrichment": 1.74}
{"Oligonucleotide": "AAGUCCUGUGCUACACAUCGUAUGUACCGAAUCGGAAAGGUUUUUUUGGUUUUUGGAAAGUAUUAUGUUACGCCGUUCGGAUCUGCACUU", "log2 enrichment": -1.61}
{"Oligonucleotide": "UCCUCAAGUCCUGUGCUACACAUCGUAUGUACCGAAUCGGCGGGCGGCGGGGAAAGUAUUAUGUUACGCCGUUCGGAUCUGCACUUCCAG", "log2 enrichment": 0.178}
{"Oligonucleotide": "UUAGAAGAAGAAGAUGGAGUGUGGGAGAAUGGACUUUCCUAUGAAUGCCGUACUCUGCUUUUCAAAGCAGUUCACAAUCUAUUGGAACGG", "log2 enrichment": -1.36}
{"Oligonucleotide": "CCUGUGCUACACAUCGUAUGUACCGAAUCGGGGCCCCCCGGGCCCCCCGGGGCCCCCCGGAAAGUAUUAUGUUACGCCGUUCGGAUCUGC", "log2 enrichment": -0.63}
{"Oligonucleotide": "UCCUGUGCUACACAUCGUAUGUACCGAAUCGGGGUUUUUUGGGUUUUUUGGUUUUUUGGGAAAGUAUUAUGUUACGCCGUUCGGAUCUGC", "log2 enrichment": -0.405}
{"data": "Block 4", "target": "RING finger protein unkempt homolog, zinc fingers 1-6, GST-SBP tag (UNK, Homo sapiens, UniProt Q9C0B0, residues 30-357)", "method": "RNA Bind-n-Seq", "molecule type": "RNA", "matrix": "in vitro", "concentration": "not given", "notes": "RNA with constant flanks, human and mouse sites, ends assumed", "baseline": "input RNA pool", "direction": "higher = stronger binding", "all sequences stand within": "GGGAGUUCUACAGUCCGACGAUC … CAACAGAGGAUUGAGCAUCA", "chain of UniProt Q9C0B0 (30-357, looked up)": "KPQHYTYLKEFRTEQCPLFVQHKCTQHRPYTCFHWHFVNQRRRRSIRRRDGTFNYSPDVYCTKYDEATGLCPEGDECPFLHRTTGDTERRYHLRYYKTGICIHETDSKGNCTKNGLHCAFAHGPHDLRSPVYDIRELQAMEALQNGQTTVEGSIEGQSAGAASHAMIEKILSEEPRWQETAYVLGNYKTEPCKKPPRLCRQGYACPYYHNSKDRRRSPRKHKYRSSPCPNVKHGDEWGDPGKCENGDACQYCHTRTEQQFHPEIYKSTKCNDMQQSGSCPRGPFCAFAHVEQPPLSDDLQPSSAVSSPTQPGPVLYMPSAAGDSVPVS"}
{"Oligonucleotide": "GAAGUUCUGAUCAAGAUGGCAUCUCAGCCCUUCGGCCGAGGAGCAAUGAGGGAGUGCUUCCGGACGAAGAAGCUCUCCAACUUCUUGCAUGCCCAGCAGUGGAAGGGCGCCUCCAACUAC", "bound/input enrichment [ratio]": 0.107}
{"Oligonucleotide": "GGUUUUCCUAAAGUCAACAUUCUCCUCAGGGAUGCCAUUGAAAAGUUAUUUCCUGAUGCCAUUAGAAUGCGAGUUGAAGACAUUCAGCAGAAUAAUGAUGUAGUCCAAAGUCUUGCAGCC", "bound/input enrichment [ratio]": 0.255}
{"Oligonucleotide": "CCAGCCGGUACAGACCCAAGGAUCUUGUCUUUAGCUGCUGAAGUUGCAAAAAGUCCUGAACAAAAUGUUCCUGUUAUAUUAUUGAAGUUAAAAGAAAUAAUAAACAACACCCCUUUGGGA", "bound/input enrichment [ratio]": 0.22}
{"Oligonucleotide": "GAAAAACCAUCUCCUAUCCAGGAGGAGAGCAUUCCCAUUGCUUUAUCUGGUAGGGAUAUCUUAGCUAGAGCAAAAAAUGGAACAGGCAAAAGCGGUGCCUACCUCAUCCCCUUACUUGAA", "bound/input enrichment [ratio]": 0.828}
{"Oligonucleotide": "UUGGAUGGGGCUUCUUCUCUUUAGGUUUGUGUUUGCCCUCCCGCCUGCUUCUGGUUUGUAACUAGCACAGUCCCGCCACUCAGCACACUCAGUAUUACCGUGGAGCUGUGGGGUUCUUGC", "bound/input enrichment [ratio]": 1.51}
{"Oligonucleotide": "CUGUUUUGUGAAACAUGUCUACCCAGAAAAGUAGCAUUCUAUAAAUACUAUUAAACAACUUAGCUAUAUUAUUUUUAAGUAUUAAAUUAUAUGUCAAGCAGUUAAAGUGAAUUUCAGAGU", "bound/input enrichment [ratio]": 5.06}
{"Oligonucleotide": "GGAAAAUAUGAAGGACUAACAAAGAAUUACAUGGAUUAUUUAUCCCGACUAUAUGAAAGAGAAAUCAAAGAUUUCUUUGAAGUUGCAAAGAUCAAGAUGACUGGCACAACUAAAGAAAGC", "bound/input enrichment [ratio]": 0.165}
{"Oligonucleotide": "UUUCUGGGUUUUACAUAUGUGGCUCCAUCUGUACUUGAAAGUGUGAAAGAAAAGUUUUCCUUUGAACCAAAAAUCCGAUCACCUCGAAGAUUUAUUGGCAGCCCACGAACACCUGUCAGC", "bound/input enrichment [ratio]": 0.212}
{"Oligonucleotide": "CACGGGCUGGUCAGUAUGACAUUUAAAGUGGAAAAGCCAGAAUAUUGAGUUAUUUCUUAACAAGUUUCGAGAGAGAAGGGAGCAAGACAAGAGCAAGCAACGGCUAUUAAAUGUCACAAU", "bound/input enrichment [ratio]": 0.296}
{"Oligonucleotide": "UGUGGCUUUAACAUUUUAUGCAACUAUUUAUGAAGACCUCUGUUGUACCUGUAAUAAAUAUAUAGAAAAAGCACAUACUUCGUAUGGUGAGCUUUAUGGUUUUGUGUGUGUGUUGGGGUU", "bound/input enrichment [ratio]": 0.648}
{"Oligonucleotide": "UUGCAUCCAGCAGCAGCUAUUUUGGGGAGCAGCUGUGGUCGUUAUAUAAACAGAGUUUCAGCCCAAAGCUUAGGCUUUUUAUCCAGCUUCAAGCAGAAAAUACGGGGAGAGUCGAGCAGU", "bound/input enrichment [ratio]": 0.372}
{"note": "Some of these lines once more (block 1):"}
{"Oligonucleotide": "AGGCAGCG", "E-score": 0.189}
{"Oligonucleotide": "AGGGACGC", "E-score": 0.0341}
{"Oligonucleotide": "ATCGGGTG", "E-score": 0.177}
{"Oligonucleotide": "ACACTCAC", "E-score": -0.104}
{"Oligonucleotide": "ACCGTCGT", "E-score": 0.067}
{"Oligonucleotide": "AAGATCTG", "E-score": -0.104}
{"Oligonucleotide": "CAACAAAG", "E-score": -0.184}
{"Oligonucleotide": "CACCAAAA", "E-score": -0.0214}
